# Measurements from different studies.
# Protocols differ between the studies behind these lines. Values joined by “and” are separate records of one study, mostly repeats; a detail may differ. ± marks the error that the study gave.
Structure (SMILES),cell line,test,conditions,scale,quantity,result
COc1ccc(Cn2ccc3ccc(C(=O)NO)cc32)cc1,OCI-Ly1,,"0.5 µM, 120 h",,viability,85.6%
COc1cnc2cccc(N3CCc4c(cc(Cn5ccnc5C)cc4-c4cn(C)nc4C(F)(F)F)C3=O)c2c1,G-361,"cell growth, inhibitor",120 h,,EC50,11.9 nM
C=Cc1c2[n-]c(c1C)/C=c1\[n-]/c(c(C)c1C=C)=C\c1[n-]c(c(CCC(=O)O)c1C)/C=c1\[n-]c(c(C)c1CCC(=O)O)=C2.[Sn+4],SH-SY5Y,"RNA-seq, measured: CEBPD mRNA","5 µM, 5 h",baseline: untreated cells,fold change,3.61
Oc1cc(O)cc(/C=C/c2ccc(O)c(O)c2)c1,OCI-Ly1,,"1 µM, 120 h",,viability,136%
Cn1cc(-c2ccc(-c3cncc(Cl)c3N3CCC4(CCNC4=O)CC3)cc2)cn1,COLO 205,"gene expression, microarray, measured: TFRC mRNA","concentration not given, 6 h",baseline: untreated cells,log2 fold change,-1.26
C[C@]12CCCN1CC1=NNC(=O)c3cc(F)cc4[nH]c2c1c34,SNU-16 gastric cancer cells,cell viability,"concentration not given, with: with temozolomide",,EC50,1800 nM
COc1cc2c(c(O)c1OC)C(=O)c1c(cc(C)c(O)c1OC)C2=O,HepaRG co-cultured with HK-2,MTT,"66.67 µM, 24 h",baseline: untreated control,cell viability,65.6 ± 8.2%
CC(=O)Nc1ccc(NC(=S)NC(=O)c2ccc(C(C)(C)C)cc2)cc1,OCI-Ly1,,"1 µM, 120 h",,viability,29%
O=C(/C=C/C=C/C=C/C1CCCCC1)NC1=C[C@@](O)(/C=C/C=C/C=C/C(=O)NC2=C(O)CCC2=O)[C@@H]2O[C@@H]2C1=O,Lu-65,"cell growth, CellTiter-Glo",78 h,,GI50,12500 nM
COc1cc2ncnc(Nc3ccc(Oc4ccccc4)c(C)c3C)c2cc1OC.Cl,COLO 205 (BRAF V600E),cell viability,"concentration not given, 72 h, with: trametinib",direction not given,Bliss synergy score,-90.9%
C[C@H]1[C@@H](O)O[C@@H]2O[C@@]3(C)CC[C@H]4[C@H](C)CC[C@@H]1[C@@]24OO3,THP-1,"annexin V/PI flow cytometry, measured: annexin V-/PI+","0.8 µM, 24 h",,necrotic cells,0%
COCCOCc1ccc(-c2cc3onc(-c4ccccc4)c3c(=O)n2C)cc1,COS-7,,"3 µM, 24 h, 0.1% DMSO, unit not given",baseline: vehicle control,confluence,0.95 ± 0.01
CCn1c(=O)/c(=C2\Sc3ccccc3N2C)s/c1=C\c1cccc[n+]1CC.[Cl-],iPSC-derived cardiomyocytes,concentration-response fit,concentration not given,baseline: vehicle,fitted top MyBP-C level,76%
COc1cc(O)c2c(c1)C(=O)c1cc(C)cc(O)c1C2=O,HepaRG co-cultured with HK-2,MTT,"133.33 µM, 24 h",baseline: untreated control,cell viability,97.5 ± 13%
Cc1cc(Nc2ncc(Cl)c(Nc3ccccc3S(=O)(=O)C(C)C)n2)c(OC(C)C)cc1C1CCNCC1,CLB-GE,"phosphoproteomics LC-MS/MS, measured: BICD2 phosphorylation","200 nM, 60 min",baseline: untreated,log2 fold change,-1.74
C=C1C(=O)OC2CC1C(OC(C)=O)C/C(C)=C/CC/C(C)=C\CCC2(C)O (stereo not drawn),iPSC-derived cardiomyocytes,concentration-response fit,concentration not given,baseline: vehicle,fitted top MyBP-C level,101%
CCOC(=O)CCNc1cc(N2CCc3ccccc3CC2)nc(-c2ccccn2)n1,OCI-Ly1,,"0.5 µM, 120 h",,viability,117%
O=C(Nc1cnc2ccccc2c1)c1cc2[nH]ccc2cc1Cl,COS-7,,"1 µM, 24 h, 0.1% DMSO, unit not given",baseline: vehicle control,confluence,0.94 ± 0.05
Cc1cc(-c2ccccc2)n(-c2nc(-c3ccc(Cl)cc3)c3c(NC(=O)c4ccccc4)nnc-3[nH]2)n1,786-0,NCI60 SRB,10 µM,,growth percent,97.9%
CCn1cc(-c2cc(Cn3ccoc3=N)cc3c2CCN([C@@H](C)c2cc(OC)ccn2)C3=O)c(C(F)(F)F)n1,SNU1196,cell growth,120 h,,EC50,1900 nM
COc1cc(/C=C/C(=O)N2CCC=CC2=O)cc(OC)c1OC,MDA-MB-468,"quantitative RT-PCR, measured: PDK1","30 µM, 8 h",baseline: untreated cells,mRNA level,97.2 ± 6.4%
O=C(CCCCCCC(=O)Nc1ccc([C@H]2O[C@@H](CSc3nc(-c4ccccc4)c(-c4ccccc4)o3)C[C@@H](c3ccc(CO)cc3)O2)cc1)NO,OCI-Ly1,,"0.1 µM, 120 h",,viability,186%
FC(F)(F)Sc1ccc(CNc2cccc3[nH]ccc23)cc1,sample A patient iPSC-derived NPCs,MTS,"10 µM, 24 h",baseline: vehicle,viability,137 ± 19.7%
Cn1cc(/C=C/C(=O)c2cccc(F)c2)cc1/C=C/C(=O)NO,OCI-Ly1,,"1 µM, 120 h",,viability,111%
Cc1cccc(-c2[nH]c(CNc3ccccc3F)nc2-c2ccc3ncnn3c2)n1,pomalidomide-resistant MM1.S cells,XTT,1 µM,higher = more viable cells,XTT absorbance,3.3 E-1 and 3.2 E-1 and 5.3 E-1
Cc1cn([C@H]2C[C@H](O)[C@@H](CO)O2)c(=O)nc1N,OCI-Ly1,,"1 µM, 120 h",,viability,149%
O=c1[nH]nc(OCCCc2ccc(Cl)cc2)c(NCc2cccnc2)c1Br,HEK-293T,"RNA-seq GSEA, measured: Hallmark bile acid metabolism",concentration not given,direction not given,normalized enrichment score,-0.854
